Measurements gathered from unrelated publications.
Several values in a cell are separate wells, animals, samples, runs or records. ± gives the spread as reported.

For `C[C@H]1[C@H](C)CC[C@]2(C)CC[C@]3(C)C(=CC(=O)[C@@H]4[C@@]5(C)CC[C@@H](O)[C@](C)(C(=O)NCc6cn(-c7cccc(Br)c7)nn6)[C@@H]5CC[C@]43C)[C@H]12`, “CD8- T cells” read 40.5% (human PBMCs, ConA-activated; flow cytometry; 10 µM, 24 h; relative to: T cells).
`CC(C)OP(=O)(OC(C)C)C(Cc1cc(C(C)(C)C)c(O)c(C(C)(C)C)c1)P(=O)(OC(C)C)OC(C)C` has an EC50 of 5.86 µM (HEK293T ATF4-FLuc reporter; ATF4 reporter gene, activator, luciferase reporter).
The mRNA level of `CC(C)(C)NC(=O)c1cncn1C1CCN(c2ccc(-c3nnc(C(F)(F)F)o3)cn2)CC1` is reported as 1.07 (HDMEC; qPCR, measured: TSC22D1 isoform 3; concentration not given, unit not given; relative to: DMSO).
`COc1cc(O)c2c(=O)c(O)c(-c3ccc(O)c(O)c3)oc2c1` gave a kynurenine level of 133 ± 11.9 % change (Caco-2/THP-1 co-culture; concentration not given, together with: LPS 50 ng/mL).
The GI50 of `O=C(/C=C/C=C/C=C/C1CCCCC1)NC1=C[C@@](O)(/C=C/C=C/C=C/C(=O)NC2=C(O)CCC2=O)[C@@H]2O[C@@H]2C1=O` is reported as 19.7 µM (mel285; cell growth, inhibitor, CellTiter-Glo luminescence; 78 h; relative to: day 0 cell count).
`COc1c(O)c(C)cc2c1C(=O)c1c(cc(O)c(O)c1O)C2=O` gave a viability of 97.6 ± 6.95% (HK-2 co-cultured with HepaRG; MTT; 33.33 µM, 24 h; relative to: untreated control).
For `COc1cc(/C=C/C(=O)N2CCC=CC2=O)cc(OC)c1OC`, the mRNA level was 86.6 ± 10.4% (MDA-MB-468; quantitative RT-PCR, measured: OSM-R; 30 µM, 8 h; relative to: untreated).
`Nc1ncnc2c1ncn2[C@@H]1O[C@H](CO)[C@@H](O)[C@H]1O`: “log2 fold change” 9.4 and 8.8 and 8.2 (activated human T cells; measured: orotate; 30 µM; relative to: DMSO).
The inhibition of `Cc1cc(N2CCc3c(c(C)nn3CC34CCC(NC(=O)[C@@H]5COCCN5)(CC3)CC4)C2)c2cnn(C)c2n1` is reported as 93 ± 1% (human PBMC; qRT-PCR, measured: IFI44 mRNA; 100 nM, together with: ssRNA).
The IL-1β release of `Nc1ncnc2c1ncn2[C@@H]1O[C@H](COP(=O)(O)OP(=O)(O)OP(=O)(O)O)[C@@H](O)[C@H]1O` is reported as 7.46 pg/mL and 11.2 pg/mL and 9.39 pg/mL (THP-1 ASC knockout, PMA-differentiated, Pam3CSK4-primed; inducer, ELISA; concentration not given).
`c1ccc2[nH]ccc2c1` — result for “mRNA level, LS mean”: 86.3 counts per million (HCT-8; RNA-seq, measured: ARRDC4; concentration not given).
`COc1ccc(-n2nc(C(C)=O)s/c2=N\N=C(/C)c2ccc(NC(=O)c3ccc(C)cc3)cc2)cc1` has a viability of 99.8% (HepG2; 0.078 µM).
With `CCCCN1CCN(c2ccc3[nH]c(-c4ccc5[nH]c(-c6ccc(C(F)(F)F)cc6)nc5c4)nc3c2)CC1` the growth percent was -71.8% (SF-268; SRB; 10 µM, 48 h).
With `CC(=O)C(C)O` (stereo not drawn) the inhibition was -16.3% (THP-1; pyroptotic LDH release; 2 µM, 40 min, together with: LPS then nigericin).
`COc1cnc2cccc(N3CCc4c(cc(Cn5ccnc5C)cc4-c4cn(C)nc4C(F)(F)F)C3=O)c2c1` gave an EC50 of greater than 30 µM (SNU-423; cell growth, inhibitor; 120 h).
The EC50 of `Cc1cc(C#N)cc(C)c1Oc1nc(Nc2ccc(C#N)cc2)nc2[nH]ccc12` is reported as greater than 9.96 µM (HEK293T ATF4-FLuc reporter; ATF4 reporter gene, activator, luciferase reporter).
With `C=CCCCCCCCCCO` the inhibition was 2.21% (THP-1; pyroptotic LDH release; 2 µM, 40 min, together with: LPS then nigericin).
With `O=C(O)c1cc(O)c(O)c(O)c1` the kynurenine level was 129 ± 13.5 % change (Caco-2/THP-1 co-culture; 0.5 µg/mL, together with: LPS 500 ng/mL).
For `Cn1cc(-c2ccc(-c3cncc(Cl)c3N3CCC4(CCNC4=O)CC3)cc2)cn1`, “fold change in expression” read -1.29 (COLO 205; microarray, measured: FABP5; concentration not given, 6 h, gene set E-FABP; relative to: untreated cells).
Under DQ-BSA dequenching, `Nc1ccnc(-c2ccccc2)c1` is recorded as “no effect” (TMEM175 knockout MEFs; concentration not given).
`Cc1ccc(C(=O)O)cc1` gave an inhibition of 17.1% (THP-1; pyroptotic LDH release; 2 µM, 40 min, together with: LPS then nigericin).
`O=C(O)/C=C/c1ccc(O)c(O)c1` has a kynurenine level of 118 ± 3.7 % change (Caco-2/THP-1 co-culture; 0.05 µg/mL, together with: LPS 50 ng/mL).
With `CCN(CC)c1nccc(NCc2ccc(CNc3nc(Cl)ncc3F)cc2)n1` the EC50 was 6.95 µM (HEK293T ATF4-FLuc reporter; ATF4 reporter gene, activator, luciferase reporter).
Under “transepithelial electrical resistance”, `COc1cc(CCC(=O)O)ccc1O` is recorded as 83.1 ± 11.2% (Caco-2/THP-1 co-culture; TEER; concentration not given, together with: LPS 250 ng/mL; relative to: control).
For `COC(=O)C1=C(C)NC(C)=C(C(=O)OCCCCNC[C@H](O)COc2ccccc2)C1c1cccc([N+](=O)[O-])c1` (stereo partly drawn), the EC50 was 6.64 µM (HEK293T ATF4-FLuc reporter; ATF4 reporter gene, activator, luciferase reporter).
`OC[C@H]1O[C@@H](n2cnc3c(O)nc(O)nc32)[C@H](O)[C@@H]1O` has an inhibition of 4.4% (THP-1; pyroptotic LDH release; 2 µM, 40 min, together with: LPS then nigericin).
`O=C(c1cc(Cc2n[nH]c(=O)c3ccccc23)ccc1F)N1CCN(C(=O)C2CC2)CC1` has a colony survival of 56.5% (MDA-MB-436 BRCA1-mutant; colony formation; 10 nM; relative to: vehicle (DMSO)).
The inhibition of `Oc1cccnc1` is reported as 9.65% (THP-1; pyroptotic LDH release; 2 µM, 40 min, together with: LPS then nigericin).
The inhibition of `CCOC(=O)c1nn(-c2ccccc2)c(C#N)c1N` is reported as 37.1 ± 5.5% (human monocytes; phagocytosis of anti-D RBCs; 5 µM, lab-synthesized sample).
Under “transepithelial electrical resistance”, `O=C(O)Cc1ccc(O)cc1` is recorded as 84.1 ± 8.6% (Caco-2/THP-1 co-culture; TEER; 0.25 µg/mL, together with: LPS 250 ng/mL; relative to: control).
`CCn1cc(-c2cc(Cn3ccoc3=N)cc3c2CCN([C@@H](C)c2cc(OC)ccn2)C3=O)c(C(F)(F)F)n1` has an EC50 of 0.0077 µM (NUGC-3; cell growth, inhibitor; 120 h).
For `O=C(Nc1nnc2n3c(Cc4ccccc4)n[nH]c3nc(-c3ccc(Cl)cc3)c1-2)c1ccccc1`, the cell growth was 101% (SF-268; SRB; 10 µM, NCI60 single-dose screen; relative to: untreated).
`CC/C(=N\NC(=O)NCc1cccc(O)c1)c1ccc(O)c(C)c1O`: “log ratio of mRNA level” 5.3 (SK-OV-3; microarray, measured: KRTAP2-3; 3D culture in gellan gum; 10 µM, 24 h; relative to: DMSO).
For `COc1cc(-c2oc3cc(O)cc(O)c3c(=O)c2O)ccc1O`, the kynurenine level was 113 ± 2.3 % change (Caco-2/THP-1 co-culture; concentration not given, together with: LPS 50 ng/mL).
`CCOc1ccc(-c2nc3cc(-c4nc5cc(N6CCN(C)CC6)ccc5[nH]4)ccc3[nH]2)cc1OCC` has a growth percent of 14.8% (OVCAR-8; SRB; 10 µM, 48 h).
The fold change of `C=CC1=C(C)c2cc3[n-]c(cc4nc(cc5[n-]c(cc1n2)c(C)c5C=C)C(C)=C4CCC(=O)O)c(CCC(=O)O)c3C.[Zn+2]` is reported as 2.14 (SH-SY5Y; RNA-seq, measured: SERPINE1 mRNA; 5 µM, 5 h; relative to: untreated cells).
For `CCn1cc(-c2cc(Cn3ccnc3)cc3c2CCN([C@H](c2cc(OC)ccn2)C2CC2)C3=O)c(C(F)(F)F)n1`, the EC50 was greater than 30 µM (COV434; cell growth, inhibitor; 120 h).
With `O=C(O)P(=O)(O)O` the inhibition was -15.3% (THP-1; pyroptotic LDH release; 2 µM, 40 min, together with: LPS then nigericin).
For `Cc1c(C)c2c(c(C)c1O)CCC(C)(COc1ccc(CC3SC(=O)NC3=O)cc1)O2` (stereo not drawn), “point of departure” read 15.1 µM (HepG2; mitochondrial ROS; 1 h, distribution mode 2).
Under “surface marker level”, `Nc1cccc2c1C(=O)N(C1CCC(=O)NC1=O)C2=O` (stereo not drawn) is recorded as 41.3% (RPMI-8226; flow cytometry, measured: CD64; concentration not given; relative to: comparator compound alone).
For `CCc1c(-c2ccccc2)c(-c2ccccc2)nn1-c1ccccc1-c1cccc(OCC(=O)O)c1`, the mRNA level was 0.927 and 0.812 and 0.933 (mouse osteoclasts; RT-qPCR, measured: Nfatc1; 1 µM, unit not given, together with: M-CSF plus RANKL; relative to: bone marrow macrophages).
The inhibition of `O=C(O)Cc1cccc(O)c1` is reported as 40.1% (THP-1; pyroptotic LDH release; 2 µM, 40 min, together with: LPS then nigericin).
`COc1cc2c(c(OC)c1OC)C(=O)c1c(cc(C)c(O)c1OC)C2=O` gave a viability of 78.7 ± 4.53% (HK-2 co-cultured with HepaRG; MTT; 33.33 µM, 24 h; relative to: untreated control).
`CCCCCCCCCc1ccc(OCCOCCOCCOCCOCCOCCOCCOCCOCCO)cc1`: “MyBP-C level change” 11.9 SD (human iPSC cardiomyocytes; plate-normalised; concentration not given, hit retest; relative to: vehicle controls, SDs below control).
`COc1ccc(NC(=S)N/N=C/c2cccc3cc4ccccc4nc23)cc1` — result for “G1 phase cells”: 57.3 ± 1.2% (HeLa; PI flow cytometry; IC12.5, 48 h, together with: N-acetylcysteine).
For `CCNC(=O)[C@H]1C[C@@H](n2cnc3c(N[C@H](CC)Cc4sccc4Cl)ccnc32)[C@H](O)[C@@H]1O`, the EC50 was 0.814 µM (HEK293T ATF4-FLuc reporter; ATF4 reporter gene, activator, luciferase reporter).
Under “log2 fold change”, `Cc1cc(Nc2ncc(Cl)c(Nc3ccccc3S(=O)(=O)C(C)C)n2)c(OC(C)C)cc1C1CCNCC1` is recorded as -2.98 (CLB-BAR; phosphoproteomics LC-MS/MS, measured: ARHGAP39 phosphorylation; 200 nM, 60 min; relative to: untreated).
For `O=c1[nH]nc(OCCCc2ccc(Cl)cc2)c(NCc2cccnc2)c1Br`, the EC50 was 2.4 µM (HEK293T ATF4-FLuc reporter; ATF4 reporter gene, activator, luciferase reporter).
Under “transepithelial electrical resistance”, `O=C(O)CCc1cccc(O)c1` is recorded as 73.8 ± 6.2% (Caco-2/THP-1 co-culture; TEER; concentration not given, together with: LPS 50 ng/mL; relative to: control).
For `CN(C)CCCNC(=O)/C(=C/CCCCC(=O)NO)COc1cccc2ccccc12`, the EC50 was 0.584 µM (HEK293T ATF4-FLuc reporter; ATF4 reporter gene, activator, luciferase reporter).
`Nc1ccc(Cl)cc1Cl` gave an inhibition of 47% (THP-1; pyroptotic LDH release; 2 µM, 40 min, together with: LPS then nigericin).
The fold change of `Cn1c(Nc2nc3ccc(C(F)(F)F)cc3s2)nc2cc(C(=O)NCCOCCO)ccc21` is reported as 3.2 (SH-SY5Y; RNA-seq, measured: HSPB8 mRNA; 5 µM, 5 h; relative to: untreated cells).
`Clc1nc(NCc2ccco2)c2[nH]cnc2n1` gave a ΔPSI of -0.323 (FD iPSC-derived cardiomyocytes; alternative splicing, RNA-seq, measured: DPY19L2 exon chr12(-):63569223-63569349; unit not given; relative to: DMSO minus compound).
The EC50 of `O=C(Nc1cccc(C(F)(F)F)c1)c1cc(Br)cc(Br)c1O` is reported as 2.25 µM (HEK293T ATF4-FLuc reporter; ATF4 reporter gene, activator, luciferase reporter).

A few entries again:
`COc1ccc(NC(=S)N/N=C/c2cccc3cc4ccccc4nc23)cc1` — result for “G1 phase cells”: 57.3 ± 1.2% (HeLa; PI flow cytometry; IC12.5, 48 h, together with: N-acetylcysteine).
For `CCNC(=O)[C@H]1C[C@@H](n2cnc3c(N[C@H](CC)Cc4sccc4Cl)ccnc32)[C@H](O)[C@@H]1O`, the EC50 was 0.814 µM (HEK293T ATF4-FLuc reporter; ATF4 reporter gene, activator, luciferase reporter).
Under “log2 fold change”, `Cc1cc(Nc2ncc(Cl)c(Nc3ccccc3S(=O)(=O)C(C)C)n2)c(OC(C)C)cc1C1CCNCC1` is recorded as -2.98 (CLB-BAR; phosphoproteomics LC-MS/MS, measured: ARHGAP39 phosphorylation; 200 nM, 60 min; relative to: untreated).
For `O=c1[nH]nc(OCCCc2ccc(Cl)cc2)c(NCc2cccnc2)c1Br`, the EC50 was 2.4 µM (HEK293T ATF4-FLuc reporter; ATF4 reporter gene, activator, luciferase reporter).
Under “transepithelial electrical resistance”, `O=C(O)CCc1cccc(O)c1` is recorded as 73.8 ± 6.2% (Caco-2/THP-1 co-culture; TEER; concentration not given, together with: LPS 50 ng/mL; relative to: control).
For `CN(C)CCCNC(=O)/C(=C/CCCCC(=O)NO)COc1cccc2ccccc12`, the EC50 was 0.584 µM (HEK293T ATF4-FLuc reporter; ATF4 reporter gene, activator, luciferase reporter).
`Nc1ccc(Cl)cc1Cl` gave an inhibition of 47% (THP-1; pyroptotic LDH release; 2 µM, 40 min, together with: LPS then nigericin).
The fold change of `Cn1c(Nc2nc3ccc(C(F)(F)F)cc3s2)nc2cc(C(=O)NCCOCCO)ccc21` is reported as 3.2 (SH-SY5Y; RNA-seq, measured: HSPB8 mRNA; 5 µM, 5 h; relative to: untreated cells).
`Clc1nc(NCc2ccco2)c2[nH]cnc2n1` gave a ΔPSI of -0.323 (FD iPSC-derived cardiomyocytes; alternative splicing, RNA-seq, measured: DPY19L2 exon chr12(-):63569223-63569349; unit not given; relative to: DMSO minus compound).
